Experimental data pooled from the literature.
Every numbered part comes from another study and shows a few of its results, in no order.

Sample 1
Target: Centromere-binding protein 1, full length, N-terminal tag (CBF1, Saccharomyces cerevisiae, UniProt P17106, residues 1-351)
UniProt P17106, sequence (whole entry, looked up): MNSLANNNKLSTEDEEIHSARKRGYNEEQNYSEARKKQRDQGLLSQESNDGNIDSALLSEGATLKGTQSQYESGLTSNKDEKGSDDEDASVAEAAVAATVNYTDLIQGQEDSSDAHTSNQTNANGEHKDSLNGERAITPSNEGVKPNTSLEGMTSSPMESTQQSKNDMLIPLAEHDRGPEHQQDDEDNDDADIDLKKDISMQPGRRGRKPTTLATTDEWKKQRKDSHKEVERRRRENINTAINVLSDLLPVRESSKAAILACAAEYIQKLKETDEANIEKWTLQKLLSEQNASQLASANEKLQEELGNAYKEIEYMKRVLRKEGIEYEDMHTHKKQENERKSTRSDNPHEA
Technique: protein-binding microarray
Form: double-stranded DNA, one strand shown
Medium: in vitro
Concentration: 0.8 µM
Notes: whole 60-bp probe, no competitor
Reading: higher = stronger binding
| Strand | fluorescence intensity [a.u.] |
| --- | --- |
| CTATCTTCATCTATGCATGTGCCTCTCCCAACGTTCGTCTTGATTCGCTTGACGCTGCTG | 744 |
| GAAAGTTTTTCATATAAGATCACGTTGTTTATATAGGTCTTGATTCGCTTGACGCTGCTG | 4420 |
| CTACTTACAGTACATCACGCTGCAATAGATCTATTCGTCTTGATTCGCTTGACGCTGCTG | 682 |
| TGTACGAAGCTATTTGATGTGACTATAGTAGTTAGGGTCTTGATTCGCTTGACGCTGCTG | 527 |
| TGTACGAAGCTATCACGCATGCTTATAGTAGTTAGGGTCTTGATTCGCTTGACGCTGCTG | 590 |
| CCTAACTACTATAATCACATGCCATAGCTTCGTACAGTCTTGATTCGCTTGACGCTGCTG | 1670 |
| GAAAGAAACGGCGGGCGGGTGATAATGCGGCGATAGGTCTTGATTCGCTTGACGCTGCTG | 531 |
| CTATGCGTTGCTGGTGAGGTGGCGTGGACGGTTTTCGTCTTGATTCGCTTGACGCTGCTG | 885 |
| GAAGCCTTTAGTAATCACGGGTTTTTTCCTATTTAGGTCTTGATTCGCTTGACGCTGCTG | 1370 |
| CTACAGGCAGCAAAAAACGTGATAGTAAAGCTATTCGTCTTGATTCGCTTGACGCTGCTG | 1420 |
| CTAGCTTTTGTACATATCGTGTCATACTGCGACTTCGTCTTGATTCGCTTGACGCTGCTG | 608 |
| CCTAACTACTATATGACTGTATTATAGCTTCGTACAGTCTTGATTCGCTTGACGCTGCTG | 540 |

Sample 2
Target: RNA binding protein fox-1 homolog 2, RRM domain, GST-SBP tag (RBFOX2, Homo sapiens, UniProt O43251-10, residues 100-194)
Technique: RNA Bind-n-Seq
Form: RNA
Medium: in vitro
Concentration: 365 nM
Notes: natural RNA segment, single round, ends assumed
Relative to: no-protein control
Reading: higher = stronger binding
Residues (chain): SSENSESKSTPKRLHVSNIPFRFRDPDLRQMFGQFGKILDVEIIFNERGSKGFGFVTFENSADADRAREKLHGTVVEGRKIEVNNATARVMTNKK
| Strand | RBNS enrichment (R) |
| --- | --- |
| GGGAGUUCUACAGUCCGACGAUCGUUGGAUAUGUGGUUCCUGAUGCAUUUUGACUUGUCUUUUUAAAUGCUUUAUCUUUUUCUUUAAAGAUUUAUUUCAAUAAAACUAAUUGGGACCACCCGUAUUUCAGUAGUGGAAUUCUCGGGUGCCAA | 0.849 |
| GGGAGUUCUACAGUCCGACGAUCCACGGUGUUCUCAGCACCGUGAUCUGUCAGCUGUGCUCUCUUAGCCUCCAGCCUGAGCUCUCAAGAGGUGGUAGAGCUAAGCUCUGGAGGUGGAGUCUUAGGAAGACCCAUGGAAUUCUCGGGUGCCAA | 0.394 |
| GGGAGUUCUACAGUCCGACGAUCGGACGAGUCCUUUCCAGCCUGCAAGAUUGAGUUUGAAUGACCUGCGCUCCCUUCCCUAAGGAUCCACUCCUACAGUUCAUUUAGAGAAUGGCUACUGCUGAGUCCUCUGGUGGAAUUCUCGGGUGCCAA | 3.64 |
| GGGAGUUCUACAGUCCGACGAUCCCUGGGAGGUCUGAGCAGAGGGAGGCCCCCAAGAGUGCCAUUGACCAAGAGACAGCAGACAGCCUGCCUCCUGGGGCGUGCCGGCACCUGCUUCAGCUACUGCCUCCUGUUGGAAUUCUCGGGUGCCAA | 0.615 |
| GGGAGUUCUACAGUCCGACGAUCUGGGAGUGGAGAUGGAGGGAUUAUUGAGCAGAAAAUGAGUUGGAUGGAGAUAAACAGCUCCCAUCCCUGGGUAAUGGAUGGUAAGAUGAUGGAGAUUCCUAAGAUUGGUGUGGAAUUCUCGGGUGCCAA | 2.31 |
| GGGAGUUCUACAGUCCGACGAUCUGUGGUCCGGCUUUGGGAGAGUGGUGAAUUGCGCUGCCCGAACUCGGAGCGGAGCAGGGUAGGGACCGUGUACAGCUUGAUAACCCUUAAUAAAAAGGGAGUUUGACCAGUGGAAUUCUCGGGUGCCAA | 1.14 |
| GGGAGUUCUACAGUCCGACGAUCUUCCUCCAAGCCACAUGAGGACUCUGGCACCCACCCACAAAGCAAGACCUGUAUUUAUAAGCCGAGGGCUCAGGGAGCCUAACUGCGGGACCCGUCAGGGCCCCGUGACCUGGAAUUCUCGGGUGCCAA | 0.351 |
| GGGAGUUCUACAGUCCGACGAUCGAACCUAGUCAGUGCUGACGCCUUCAUUUGGCUCUGCAGUCAACUUUCCAAGGCACGGUGUGGACGCAUCUGUCACCGACCCGAGGUGACGUGGUACUGGGAUGUGAGUGUGGAAUUCUCGGGUGCCAA | 0.46 |

Sample 3
Target: Sal-like protein 4, full length isoform A (SALL4, Homo sapiens, UniProt Q9UJQ4, residues 1-1053)
UniProt Q9UJQ4, sequence (whole entry, looked up): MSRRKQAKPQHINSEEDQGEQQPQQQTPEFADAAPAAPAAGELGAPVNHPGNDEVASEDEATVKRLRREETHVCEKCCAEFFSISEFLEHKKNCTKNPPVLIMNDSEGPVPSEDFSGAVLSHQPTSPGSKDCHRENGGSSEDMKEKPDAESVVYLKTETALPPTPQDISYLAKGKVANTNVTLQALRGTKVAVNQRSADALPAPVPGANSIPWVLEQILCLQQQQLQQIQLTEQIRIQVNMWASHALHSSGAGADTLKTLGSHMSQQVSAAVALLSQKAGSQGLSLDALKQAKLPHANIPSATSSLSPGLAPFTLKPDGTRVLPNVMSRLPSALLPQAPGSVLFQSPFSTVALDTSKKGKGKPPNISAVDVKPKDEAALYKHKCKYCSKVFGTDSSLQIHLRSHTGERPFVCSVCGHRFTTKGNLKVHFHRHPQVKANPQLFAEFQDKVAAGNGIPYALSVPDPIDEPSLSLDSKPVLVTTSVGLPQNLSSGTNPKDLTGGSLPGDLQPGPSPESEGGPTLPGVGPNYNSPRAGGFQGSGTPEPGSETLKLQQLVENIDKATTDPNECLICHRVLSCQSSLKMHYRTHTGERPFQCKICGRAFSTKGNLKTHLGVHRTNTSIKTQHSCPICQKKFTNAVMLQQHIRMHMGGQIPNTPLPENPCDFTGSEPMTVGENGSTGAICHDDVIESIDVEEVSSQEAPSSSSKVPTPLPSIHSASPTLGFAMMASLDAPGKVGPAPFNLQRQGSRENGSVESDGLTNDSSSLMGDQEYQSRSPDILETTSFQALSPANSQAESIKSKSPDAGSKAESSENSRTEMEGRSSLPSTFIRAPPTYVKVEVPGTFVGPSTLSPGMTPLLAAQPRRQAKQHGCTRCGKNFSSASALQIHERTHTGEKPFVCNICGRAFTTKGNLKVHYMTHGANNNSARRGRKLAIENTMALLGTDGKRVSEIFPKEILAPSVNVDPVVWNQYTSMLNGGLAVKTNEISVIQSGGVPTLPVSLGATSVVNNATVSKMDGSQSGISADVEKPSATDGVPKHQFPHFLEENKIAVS
Technique: universal PBM
Form: double-stranded DNA, one strand shown
Medium: in vitro
Concentration: 600 nM
Notes: 8-mer, flanks averaged, mean of replicates
Reading: higher = stronger binding
| Strand | E-score |
| --- | --- |
| CGGACATC | -0.211 |
| CTTACCGC | -0.258 |
| ATTTAATA | 0.417 |
| AGGCGTTG | -0.155 |
| ACAGAGTA | 0.0909 |
| ATGAACAA | 0.268 |
| ACGCAATG | 0.0158 |
| GTTTGTGA | 0.0159 |
| GACCCGTC | -0.374 |
| AGGGAATG | 0.0191 |
| ACGACCGC | -0.303 |
| GGTCCTAA | 0.111 |
| AGTTCACG | -0.0316 |

Single results of other studies
| Substance | target | test | system | conditions | how to read | measurement | result |
| --- | --- | --- | --- | --- | --- | --- | --- |
| PhoQ, residues 284 288 289 292 302 303 NLSRDF | PhoP, residues 12 14 15 18 19 TPWLV (Escherichia coli, UniProt P23836) | Sort-seq, refers to: YFP reporter | E. coli | PhoQ-PhoP variant library, with: 10 µM Mg2+ | relative to: high Mg2+ state, higher = stronger signaling | fold induction | 8.99 |
